{"data": "Published values collected from several papers", "cell line": "HCT-116"}
{"Compound": "Cc1cc(NS(=O)(=O)c2ccc(NC(=O)/C(C#N)=C/c3ccc(N4CCOCC4)cc3)cc2)no1", "assay": "cytotoxicity, MTT", "how to read": "relative to: HSF over HCT-116 IC50", "selectivity index": "> 2.95"}
{"Compound": "COc1nc(NCc2cn(-c3ccc(NC(=O)c4ccc(C)cc4)cc3)nn2)nc(OC)n1", "assay": "MTT", "conditions": "72 h", "how to read": "relative to: normal colonocytes over HCT-116", "selectivity index": 0.42}
{"Compound": "CCn1c(C)c(C(C)=O)sc1=NN=C(C)c1c(O)c2ccccc2oc1=O", "assay": "cell growth, MTT", "how to read": "relative to: IC50 BJ-1 over HCT-116", "selectivity index": "> 2.57"}
{"Compound": "COc1nc(NCc2cn(-c3ccc(NC(=O)c4ccc([N+](=O)[O-])cc4)cc3)nn2)nc(OC)n1", "assay": "MTT", "conditions": "72 h", "how to read": "relative to: normal colonocytes over HCT-116", "selectivity index": 0.16}
{"Compound": "Cc1cc(NS(=O)(=O)c2ccc(NC(=O)/C(C#N)=C/c3ccncc3)cc2)no1", "assay": "cytotoxicity, MTT", "how to read": "relative to: HSF over HCT-116 IC50", "selectivity index": "> 1.07"}
{"Compound": "O=P1(C2CCCCC2)CCCCC1", "assay": "MTT", "conditions": "72 h", "how to read": "relative to: IC50 HaCaT over IC50 HCT-116", "selectivity index": 7.2}
{"Compound": "COc1ccc(C(=O)Nc2ccc(-n3cc(CNc4nc(OC)nc(OC)n4)nn3)cc2)cc1", "assay": "MTT", "conditions": "72 h", "how to read": "relative to: normal colonocytes over HCT-116", "selectivity index": 0.22}
{"Compound": "CC(=NN=c1scc(-c2ccccc2)n1C)c1c(O)c2ccccc2oc1=O", "assay": "cell growth, MTT", "how to read": "relative to: IC50 BJ-1 over HCT-116", "selectivity index": "> 2.36"}
{"Compound": "O=C1/C(=C/c2ccc3ccccc3c2O)NC(=S)N1c1ccccc1", "how to read": "relative to: BJ1 IC50 over HCT-116 IC50", "selectivity index": 1.5}
{"Compound": "CC(=NN=c1[nH]c(C)cs1)c1c(O)c2ccccc2oc1=O", "assay": "cell growth, MTT", "how to read": "relative to: IC50 BJ-1 over HCT-116", "selectivity index": "> 3.07"}
{"Compound": "COc1cccc2c1C(=O)c1c(O)c3c(c(O)c1C2=O)C[C@@](O)(C(=O)CO)C[C@@H]3O[C@H]1C[C@H](N)[C@H](O)[C@H](C)O1", "how to read": "relative to: BJ1 IC50 over HCT-116 IC50", "selectivity index": 0.9}
{"Compound": "COc1cccc2c1C(=O)c1c(O)c3c(c(O)c1C2=O)C[C@@](O)(C(=O)CO)C[C@@H]3O[C@H]1C[C@H](N)[C@H](O)[C@H](C)O1", "assay": "MTT", "conditions": "72 h", "how to read": "relative to: IC50 HaCaT over IC50 HCT-116", "selectivity index": 1.5}
{"Compound": "CC(=NN=C1SCC(=O)N1C)c1c(O)c2ccccc2oc1=O", "assay": "cell growth, MTT", "how to read": "relative to: IC50 BJ-1 over HCT-116", "selectivity index": "> 2.43"}
{"Compound": "COc1nc(NCc2cn(-c3ccc(NC(=O)c4ccccc4)cc3)nn2)nc(OC)n1", "assay": "MTT", "conditions": "72 h", "how to read": "relative to: normal colonocytes over HCT-116", "selectivity index": 0.96}
